# Measured values from different studies.
# Protocols differ between the studies behind these lines. Values joined by “and” are separate records of one study, mostly repeats; a detail may differ.
# TEC: Tyrosine-protein kinase Tec (TEC, Homo sapiens, UniProt P42680)
SMILES,target,assay,test system,setting,scale,measurement,result
CC(C)=CC1OC(C)(C)C2C=C3C(=O)C(Cl)=CC(O)C3C3C(O)C4OC4C(=O)C132 (centres unmarked),TEC,"cell-free assay, competition with immobilised ligand",,10 µM,,remaining binding,90%
Cc1ccc(C(=O)Nc2ccc(CN3CCN(C)CC3)c(C(F)(F)F)c2)cc1C#Cc1cnc2cccnn12,TEC,"target engagement, NanoBRET",human cells,,,upper asymptote,18
C=CC(=O)N1Cc2nc(-c3cc(-c4cc(Cl)cnc4Cl)c(F)cc3F)n(-c3ccncn3)c2C1,TEC,"cell-free assay, inhibitor",,1 µM,,inhibition,> 50%
C=CC(=O)Nc1cc(-c2nn(C3CCN(CCNC(=O)[C@H](C)CCC45CC6CC(CC(C6)C4)C5)CC3)c3ncnc(N)c23)ccc1Oc1ccccc1,TEC,"inhibitor, KiNativ profiling",biochemical,2 µM,,inhibition,59.2%
CCN1CCN(Cc2ccc(C(=O)Nc3ccc(C)c(NCc4cnc5[nH]ccc5c4OC)c3)cc2C(F)(F)F)CC1,TEC,"binding, competition with immobilised ligand",,1 µM,,remaining binding,18%
NC(=O)[C@@H](O)C[C@H]1CCc2sc3ncnc(O[C@H]4CC[C@H](N5CCOCC5)CC4)c3c21,TEC,"enzyme activity, inhibitor",,10 µM,,inhibition,13%
CNC1C[S+]2CC[S+]3CC[S+](C1)[Ru-4]321([N]=C=S)[n]2c3ccc(OC)cc3c3c4c(c5cc(F)c[n+]1c5c32)C(=O)NC4=O (centres unmarked),TEC,KinomeScan,,0.1 µM,reference: untreated,remaining binding,93%
C=CC(=O)N1CCc2ccc(-n3c(=O)ccc4cnc5ccc(-c6cnn(C)c6)cc5c43)cc21,TEC,KINOMEscan,,1 µM,reference: DMSO control,remaining binding,53%
C=CC(=O)Nc1cccc(-c2cnc3[nH]cc(C(=O)NC(C)(C)C)c3n2)c1,TEC,kinase activity,,0.1 µM,,inhibition,55% and 61%
CCN1CCN(Cc2ccc(NC(=O)c3ccc(C)c(NC(=O)c4cncc(-c5cccs5)c4)c3)cc2C(F)(F)F)CC1,TEC,"binding, competition with immobilised ligand",,1 µM,,remaining binding,4.8%
COc1ccc(NC(=O)Nc2ccc3c(c2)C(=O)N(C(C)CO)CC(C)C(CN(C)Cc2ccc4c(c2)OCO4)O3)cc1 (centres unmarked),TEC,,,0.03 µM,reference: control,remaining activity,98%
C=CC(=O)N1CCCC(n2c(=O)c3ncccc3n(Cc3ccc(Oc4ccccc4)cc3)c2=O)C1 (centres unmarked),TEC,"cell-free assay, competition with immobilised ligand",,1 µM,,remaining binding,85%
CCn1cc(C(=O)O)c(=O)c2c(N)c(F)c(NC3CCCCC3)cc21,TEC,kinase activity,,"0.1 µM, together with: ATP at Km",,inhibition,-3.5%
Cc1cnc2nc1Nc1cccc(c1)COC/C=C/COCc1cc(ccc1OCCN1CCOCC1)N2,TEC,"binding, competition with immobilised ligand",,0.1 µM,,remaining binding,79%
COc1cc(Nc2nccc(-c3cnn4nc(OC)ccc34)n2)cc(C(F)(F)F)c1,TEC,"binding, competition with immobilised ligand",,1 µM,,remaining binding,100%
Cc1cccc(O[C@H]2CCC[C@@H](C(C)CNCc3ccncc3)C2)c1 (relative stereo),TEC,"enzyme activity, inhibitor",,10 µM,,inhibition,-7%
CN1CC[C@@H](COc2cnc(C#N)cc2-c2ccn3nc(NC(=O)C4CC4)cc3c2)C1,"Tyrosine-protein kinase Tec, phosphorylated (TEC, Homo sapiens, UniProt P42680)","enzyme activity, inhibitor",,1 µM,,inhibition,21%
